{"data": "Experimental data of several laboratories", "DRD3": "D(3) dopamine receptor (DRD3, Homo sapiens, UniProt P35462)", "CTSL": "Procathepsin L (CTSL, Homo sapiens, UniProt P07711)", "GSK3B": "Glycogen synthase kinase-3 beta (GSK3B, Homo sapiens, UniProt P49841)", "note": "Protocols differ between the studies behind these lines.", "UniProt P07711, sequence (whole entry, looked up)": "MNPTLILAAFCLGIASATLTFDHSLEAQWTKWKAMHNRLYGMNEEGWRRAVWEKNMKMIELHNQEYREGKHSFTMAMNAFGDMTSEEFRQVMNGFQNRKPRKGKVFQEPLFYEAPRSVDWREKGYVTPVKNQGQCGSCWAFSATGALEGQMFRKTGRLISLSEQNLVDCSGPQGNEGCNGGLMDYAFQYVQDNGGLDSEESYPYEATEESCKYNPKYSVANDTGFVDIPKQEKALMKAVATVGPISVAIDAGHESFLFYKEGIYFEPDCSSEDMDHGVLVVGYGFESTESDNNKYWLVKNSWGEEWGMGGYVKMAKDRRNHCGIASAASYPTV", "UniProt P49841, sequence (whole entry, looked up)": "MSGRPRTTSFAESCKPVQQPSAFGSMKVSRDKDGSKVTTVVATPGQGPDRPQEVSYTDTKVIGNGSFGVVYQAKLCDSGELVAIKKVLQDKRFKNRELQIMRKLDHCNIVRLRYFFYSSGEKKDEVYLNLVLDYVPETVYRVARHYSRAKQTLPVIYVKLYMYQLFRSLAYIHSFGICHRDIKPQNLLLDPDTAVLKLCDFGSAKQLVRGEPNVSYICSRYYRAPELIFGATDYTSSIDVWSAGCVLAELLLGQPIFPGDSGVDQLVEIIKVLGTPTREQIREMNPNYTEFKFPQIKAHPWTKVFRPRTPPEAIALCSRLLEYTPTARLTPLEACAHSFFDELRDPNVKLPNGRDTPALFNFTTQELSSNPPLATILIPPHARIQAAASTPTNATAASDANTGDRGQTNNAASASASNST", "UniProt P35462, sequence (whole entry, looked up)": "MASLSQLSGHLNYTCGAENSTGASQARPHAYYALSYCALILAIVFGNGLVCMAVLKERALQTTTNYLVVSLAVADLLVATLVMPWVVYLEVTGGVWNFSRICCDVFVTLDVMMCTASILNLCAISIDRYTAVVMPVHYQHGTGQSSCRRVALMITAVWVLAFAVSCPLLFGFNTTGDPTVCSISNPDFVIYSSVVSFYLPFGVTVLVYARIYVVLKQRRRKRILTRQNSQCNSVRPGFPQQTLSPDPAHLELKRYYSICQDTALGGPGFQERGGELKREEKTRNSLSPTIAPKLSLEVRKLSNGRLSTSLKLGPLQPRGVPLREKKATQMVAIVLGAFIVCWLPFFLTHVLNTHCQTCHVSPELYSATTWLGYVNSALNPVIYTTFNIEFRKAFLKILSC", "UniProt P00519, sequence (whole entry, looked up)": "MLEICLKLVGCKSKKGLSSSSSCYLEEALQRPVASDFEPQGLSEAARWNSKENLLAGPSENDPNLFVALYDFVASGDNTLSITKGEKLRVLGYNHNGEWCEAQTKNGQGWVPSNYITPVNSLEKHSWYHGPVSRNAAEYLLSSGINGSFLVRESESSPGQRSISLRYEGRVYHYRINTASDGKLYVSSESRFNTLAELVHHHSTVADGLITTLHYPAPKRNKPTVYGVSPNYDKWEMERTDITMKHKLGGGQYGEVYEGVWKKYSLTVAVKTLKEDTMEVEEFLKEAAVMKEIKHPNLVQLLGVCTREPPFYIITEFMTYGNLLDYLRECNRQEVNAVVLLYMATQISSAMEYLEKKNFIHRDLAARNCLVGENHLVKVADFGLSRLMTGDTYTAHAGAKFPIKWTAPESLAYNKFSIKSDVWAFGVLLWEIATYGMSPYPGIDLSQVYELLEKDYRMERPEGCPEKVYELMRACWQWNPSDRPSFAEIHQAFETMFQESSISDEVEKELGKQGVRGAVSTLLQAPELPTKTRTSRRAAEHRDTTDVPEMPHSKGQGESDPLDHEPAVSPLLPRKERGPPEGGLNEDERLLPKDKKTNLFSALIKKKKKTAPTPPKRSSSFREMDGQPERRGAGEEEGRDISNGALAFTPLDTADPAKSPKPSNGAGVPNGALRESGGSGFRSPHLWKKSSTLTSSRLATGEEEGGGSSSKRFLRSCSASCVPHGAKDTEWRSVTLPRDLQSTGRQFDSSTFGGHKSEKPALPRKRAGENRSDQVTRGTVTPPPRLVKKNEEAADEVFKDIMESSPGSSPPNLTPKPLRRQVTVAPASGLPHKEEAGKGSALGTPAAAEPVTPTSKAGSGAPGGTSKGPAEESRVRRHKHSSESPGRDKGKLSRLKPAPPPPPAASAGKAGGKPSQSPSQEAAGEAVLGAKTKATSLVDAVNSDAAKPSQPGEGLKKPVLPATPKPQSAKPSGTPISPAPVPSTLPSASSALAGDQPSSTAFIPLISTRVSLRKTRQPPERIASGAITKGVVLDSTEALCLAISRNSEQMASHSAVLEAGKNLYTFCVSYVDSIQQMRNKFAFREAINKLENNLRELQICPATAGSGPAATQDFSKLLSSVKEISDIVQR", "UniProt P61075, sequence (whole entry, looked up)": "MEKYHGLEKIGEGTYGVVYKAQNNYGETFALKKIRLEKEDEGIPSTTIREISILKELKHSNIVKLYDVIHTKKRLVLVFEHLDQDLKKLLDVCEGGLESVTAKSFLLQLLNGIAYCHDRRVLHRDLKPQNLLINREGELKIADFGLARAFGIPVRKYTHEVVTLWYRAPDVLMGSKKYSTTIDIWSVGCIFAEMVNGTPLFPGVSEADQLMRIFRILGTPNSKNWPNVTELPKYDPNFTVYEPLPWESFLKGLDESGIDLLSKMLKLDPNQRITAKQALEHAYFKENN", "UniProt Q9UIK4, sequence (whole entry, looked up)": "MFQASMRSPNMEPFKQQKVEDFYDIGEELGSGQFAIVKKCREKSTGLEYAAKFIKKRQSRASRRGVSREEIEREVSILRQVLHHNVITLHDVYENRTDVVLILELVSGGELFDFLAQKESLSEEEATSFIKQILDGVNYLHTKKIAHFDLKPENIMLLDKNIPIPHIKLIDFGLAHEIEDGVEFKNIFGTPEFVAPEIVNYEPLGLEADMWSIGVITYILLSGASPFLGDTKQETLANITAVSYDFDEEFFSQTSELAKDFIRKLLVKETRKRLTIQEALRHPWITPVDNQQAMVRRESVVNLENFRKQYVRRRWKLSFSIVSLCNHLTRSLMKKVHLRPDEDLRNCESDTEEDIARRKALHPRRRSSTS", "UniProt O75116, sequence (whole entry, looked up)": "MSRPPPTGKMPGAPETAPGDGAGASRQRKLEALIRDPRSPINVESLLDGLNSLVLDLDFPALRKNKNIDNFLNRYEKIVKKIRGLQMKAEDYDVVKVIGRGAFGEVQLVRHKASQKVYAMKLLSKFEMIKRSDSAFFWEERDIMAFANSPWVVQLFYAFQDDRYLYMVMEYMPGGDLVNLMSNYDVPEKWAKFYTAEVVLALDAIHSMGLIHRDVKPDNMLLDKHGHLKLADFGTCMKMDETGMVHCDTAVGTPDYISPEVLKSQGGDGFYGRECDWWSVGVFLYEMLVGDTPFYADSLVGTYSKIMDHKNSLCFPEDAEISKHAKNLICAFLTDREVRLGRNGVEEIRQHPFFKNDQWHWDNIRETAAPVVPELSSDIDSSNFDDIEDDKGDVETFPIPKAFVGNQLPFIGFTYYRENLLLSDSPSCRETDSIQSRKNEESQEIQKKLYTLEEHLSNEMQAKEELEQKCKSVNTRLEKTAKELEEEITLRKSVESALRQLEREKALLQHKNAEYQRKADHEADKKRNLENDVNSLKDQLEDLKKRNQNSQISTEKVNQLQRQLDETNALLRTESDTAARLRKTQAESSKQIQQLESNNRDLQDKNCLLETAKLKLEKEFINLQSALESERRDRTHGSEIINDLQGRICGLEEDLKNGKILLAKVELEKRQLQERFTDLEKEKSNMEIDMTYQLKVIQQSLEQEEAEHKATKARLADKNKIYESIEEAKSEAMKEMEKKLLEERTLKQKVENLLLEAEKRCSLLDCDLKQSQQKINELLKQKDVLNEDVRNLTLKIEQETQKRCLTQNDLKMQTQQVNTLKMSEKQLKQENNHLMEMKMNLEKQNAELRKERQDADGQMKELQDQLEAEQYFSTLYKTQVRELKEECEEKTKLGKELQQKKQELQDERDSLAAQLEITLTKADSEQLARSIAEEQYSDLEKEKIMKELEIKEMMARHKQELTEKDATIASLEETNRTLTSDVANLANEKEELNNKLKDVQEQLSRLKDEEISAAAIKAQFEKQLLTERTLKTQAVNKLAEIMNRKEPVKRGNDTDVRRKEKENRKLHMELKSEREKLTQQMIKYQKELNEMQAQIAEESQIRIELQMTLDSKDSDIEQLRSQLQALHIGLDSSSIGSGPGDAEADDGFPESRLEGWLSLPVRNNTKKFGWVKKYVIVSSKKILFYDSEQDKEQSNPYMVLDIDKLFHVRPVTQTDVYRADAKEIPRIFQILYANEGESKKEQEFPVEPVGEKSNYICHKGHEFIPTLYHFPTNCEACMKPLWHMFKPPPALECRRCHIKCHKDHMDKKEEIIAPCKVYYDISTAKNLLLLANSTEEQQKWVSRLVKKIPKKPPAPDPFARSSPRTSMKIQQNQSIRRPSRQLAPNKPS", "UniProt Q9NYY3, sequence (whole entry, looked up)": "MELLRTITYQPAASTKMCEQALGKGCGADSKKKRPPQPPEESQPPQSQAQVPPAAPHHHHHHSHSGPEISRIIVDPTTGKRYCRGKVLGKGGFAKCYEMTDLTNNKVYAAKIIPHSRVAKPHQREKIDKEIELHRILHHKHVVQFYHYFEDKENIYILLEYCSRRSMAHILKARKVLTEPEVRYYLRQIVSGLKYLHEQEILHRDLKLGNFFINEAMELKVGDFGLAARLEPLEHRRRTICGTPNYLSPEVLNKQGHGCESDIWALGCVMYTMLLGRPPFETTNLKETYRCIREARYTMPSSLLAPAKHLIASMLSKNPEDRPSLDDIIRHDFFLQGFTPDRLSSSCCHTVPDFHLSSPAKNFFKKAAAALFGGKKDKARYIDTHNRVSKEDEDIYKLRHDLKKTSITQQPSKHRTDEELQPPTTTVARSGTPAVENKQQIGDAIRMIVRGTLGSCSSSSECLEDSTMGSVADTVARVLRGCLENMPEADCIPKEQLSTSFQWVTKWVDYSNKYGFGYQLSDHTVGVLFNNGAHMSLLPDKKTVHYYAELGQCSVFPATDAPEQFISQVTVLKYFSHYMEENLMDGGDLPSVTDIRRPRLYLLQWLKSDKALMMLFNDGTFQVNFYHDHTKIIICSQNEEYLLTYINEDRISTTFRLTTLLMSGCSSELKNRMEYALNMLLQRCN"}
{"SMILES": "CNc1ncc2c(/C=C/C(=O)N3CCC(OC)CC3)nn(Cc3cccc(C(F)(F)F)c3)c2n1", "target": "Rho-associated protein kinase 2 (ROCK2, Homo sapiens, UniProt O75116)", "assay": "enzyme activity, inhibitor, radiometric", "setting": "1 µM", "quantity": "remaining activity", "result": "84%"}
{"SMILES": "Cc1[nH]c(C)c(S(=O)(=O)Nc2ccc(C(F)(F)F)c3ncccc23)c1C(=O)N1CCC(F)(F)C1", "target": "DRD3", "assay": "β-arrestin recruitment, agonist", "setting": "90 min", "quantity": "Emax", "result": "87%"}
{"SMILES": "COc1c(/C=C/C(=O)c2ccc(O)c(CC=C(C)C)c2)ccc(O)c1O", "target": "CTSL", "assay": "enzyme activity, inhibitor", "setting": "100 µM", "quantity": "remaining activity", "result": "0.926%"}
{"SMILES": "C=CC(=O)N1CCC(COCC(=O)N2CCN(c3nc(-c4cnc(N)nc4C(F)F)nc(N4CCOC[C@@H]4C)n3)CC2)CC1", "target": "Death-associated protein kinase 2 (DAPK2, Homo sapiens, UniProt Q9UIK4)", "assay": "binding, competition with immobilised ligand", "setting": "1 µM", "quantity": "remaining binding", "result": "100%"}
{"SMILES": "COc1cc(C2Oc3cc(C4Oc5cc(O)cc(O)c5C(=O)C4O)ccc3OC2CO)ccc1O (stereo not shown)", "target": "CTSL", "assay": "enzyme activity, inhibitor", "setting": "100 µM", "quantity": "remaining activity", "result": "62.6%"}
{"SMILES": "CCCCC(=O)Nc1ccc(-c2ccc3ncn(CCC)c(=O)c3c2)cn1", "target": "Tyrosine-protein kinase Tec (TEC, Homo sapiens, UniProt P42680)", "assay": "binding, competition with immobilised ligand", "setting": "0.5 µM", "quantity": "remaining binding", "result": "100%"}
{"SMILES": "COc1cc(-c2cc(C(C)=O)n3ccccc23)c(OC)cc1CN1CCOCC1", "target": "Bromodomain-containing protein 9 (BRD9, Homo sapiens, UniProt Q9H8M2)", "assay": "thermal stability, DSF", "setting": "200 µM", "quantity": "ΔTm", "result": "11 °C"}
{"SMILES": "O=C(/C=C/c1ccc(O)cc1)CC(=O)/C=C/c1ccc(O)cc1", "target": "CTSL", "assay": "enzyme activity, inhibitor", "setting": "100 µM", "quantity": "remaining activity", "result": "19.7%"}
{"SMILES": "C1=C/COCc2cc(ccc2OCCN2CCCC2)Nc2nccc(n2)-c2cccc(c2)COC/1", "target": "Serine/threonine-protein kinase PLK2 (PLK2, Homo sapiens, UniProt Q9NYY3)", "assay": "cell-free assay", "setting": "0.1 µM", "quantity": "remaining signal", "result": "96%"}
{"SMILES": "Cc1cc([C@@H](C)Nc2ccccc2C(=O)O)c2nc(N3CCC(F)(F)CC3)c(C#N)c(=O)n2c1", "target": "GSK3B", "assay": "binding, competition with immobilised ligand", "setting": "10 µM", "quantity": "remaining binding", "result": "100%"}
{"SMILES": "COc1ccc(C=CC=O)cc1", "target": "CTSL", "assay": "enzyme activity, inhibitor", "setting": "100 µM", "quantity": "remaining activity", "result": "122%"}
{"SMILES": "COc1ccc2oc(-c3ccc4nc(N)oc4c3)c/c(=N\\c3ccccc3NC(=O)CCN)c2c1", "target": "Epithelial discoidin domain-containing receptor 1 (DDR1, Homo sapiens, UniProt Q08345)", "assay": "binding", "setting": "1 µM", "quantity": "remaining binding", "result": "75%"}
{"SMILES": "CC[C@H](C)[C@H](NC(=O)[C@H](CCC(N)=O)NC(=O)[C@@H](NC(=O)[C@H](CCSC)NC(=O)[C@H](CCCCN)NC(=O)[C@H](CO)NC(=O)[C@@H](NC(=O)[C@H](CCSC)NC(=O)[C@H](CC(C)C)NC(=O)[C@H](CC(N)=O)NC(=O)[C@@H](NC(=O)[C@@H](NC(=O)[C@H](CO)NC(=O)[C@H](CC(C)C)NC(=O)[C@H](C)NC(=O)[C@H](CCCNC(=N)N)NC(=O)[C@H](CCC(=O)O)NC(=O)[C@H](Cc1ccc(O)cc1)NC(=O)[C@H](Cc1ccccc1)NC(=O)[C@H](C)NC(=O)[C@H](CC(N)=O)NC(=O)[C@@H](N)CCCCN)[C@@H](C)CC)[C@@H](C)CC)[C@@H](C)O)C(C)C)C(=O)N[C@@H](CC(N)=O)C(=O)N[C@H](C(=O)O)C(C)C", "target": "GSK3B", "assay": "enzyme activity, inhibitor, radiometric", "setting": "250 µM, 20 min", "quantity": "remaining activity", "result": "127%"}
{"SMILES": "NCCCC[C@H](NC(=O)[C@@H]1CCCN1C(=O)[C@@H]1CSSC[C@H](N)C(=O)N[C@@H](Cc2ccc(O)cc2)C(=O)N[C@@H](Cc2ccccc2)C(=O)N[C@@H](CCC(N)=O)C(=O)N[C@@H](CC(N)=O)C(=O)N1)C(=O)NCC(N)=O", "target": "CTSL", "assay": "enzyme activity, inhibitor", "setting": "100 µM", "quantity": "remaining activity", "result": "134%"}
{"SMILES": "Cc1[nH]c(C)c(S(=O)(=O)Nc2cc(Cl)c(C(F)(F)F)cc2Br)c1C(=O)N1CCC(F)(F)C1", "target": "DRD3", "assay": "β-arrestin recruitment, agonist", "setting": "90 min", "quantity": "Emax", "result": "94%"}
{"SMILES": "c1cnn2ncc(-c3ccnc(N4CCC45COC5)n3)c2c1", "target": "Cyclin-dependent kinase 2 homolog (CRK2, Plasmodium falciparum, UniProt P61075)", "assay": "cell-free assay", "setting": "1 µM", "quantity": "remaining signal", "result": "72%"}
{"SMILES": "COc1cc(O)cc(O)c1C(=O)C=Cc1ccccc1", "target": "CTSL", "assay": "enzyme activity, inhibitor", "setting": "100 µM", "quantity": "remaining activity", "result": "14.8%"}
{"SMILES": "Nc1ncnc2occ(-c3ccc(NC(=O)Nc4cc(C(F)(F)F)ccc4F)cc3)c12", "target": "Tyrosine-protein kinase ABL1, non-phosphorylated (ABL1, Homo sapiens, UniProt P00519)", "assay": "cell-free assay, inhibitor", "setting": "20 µM", "quantity": "remaining signal", "result": "0%"}
{"SMILES": "COc1cc(-c2cncc3c2CN(C)Cc2cc(N4CCNCC4)ccc2-3)cc(OC)c1OC", "target": "Casein kinase I isoform gamma-2 (CSNK1G2, Homo sapiens, UniProt P78368)", "assay": "enzyme activity, inhibitor", "setting": "1 µM", "quantity": "remaining activity", "result": "108%"}
{"note": "For quick reference, copied from above:"}
{"SMILES": "CC[C@H](C)[C@H](NC(=O)[C@H](CCC(N)=O)NC(=O)[C@@H](NC(=O)[C@H](CCSC)NC(=O)[C@H](CCCCN)NC(=O)[C@H](CO)NC(=O)[C@@H](NC(=O)[C@H](CCSC)NC(=O)[C@H](CC(C)C)NC(=O)[C@H](CC(N)=O)NC(=O)[C@@H](NC(=O)[C@@H](NC(=O)[C@H](CO)NC(=O)[C@H](CC(C)C)NC(=O)[C@H](C)NC(=O)[C@H](CCCNC(=N)N)NC(=O)[C@H](CCC(=O)O)NC(=O)[C@H](Cc1ccc(O)cc1)NC(=O)[C@H](Cc1ccccc1)NC(=O)[C@H](C)NC(=O)[C@H](CC(N)=O)NC(=O)[C@@H](N)CCCCN)[C@@H](C)CC)[C@@H](C)CC)[C@@H](C)O)C(C)C)C(=O)N[C@@H](CC(N)=O)C(=O)N[C@H](C(=O)O)C(C)C", "target": "GSK3B", "assay": "enzyme activity, inhibitor, radiometric", "setting": "250 µM, 20 min", "quantity": "remaining activity", "result": "127%"}
{"SMILES": "NCCCC[C@H](NC(=O)[C@@H]1CCCN1C(=O)[C@@H]1CSSC[C@H](N)C(=O)N[C@@H](Cc2ccc(O)cc2)C(=O)N[C@@H](Cc2ccccc2)C(=O)N[C@@H](CCC(N)=O)C(=O)N[C@@H](CC(N)=O)C(=O)N1)C(=O)NCC(N)=O", "target": "CTSL", "assay": "enzyme activity, inhibitor", "setting": "100 µM", "quantity": "remaining activity", "result": "134%"}
{"SMILES": "Cc1[nH]c(C)c(S(=O)(=O)Nc2cc(Cl)c(C(F)(F)F)cc2Br)c1C(=O)N1CCC(F)(F)C1", "target": "DRD3", "assay": "β-arrestin recruitment, agonist", "setting": "90 min", "quantity": "Emax", "result": "94%"}
